Assay results gathered from unrelated publications.
Compare with care: the assays were run in different laboratories. Numbers after ± are the reported error.
hdac10: Polyamine deacetylase HDAC10 (hdac10, Danio rerio, UniProt F1QCV2)
Sequence of UniProt F1QCV2 (whole entry, looked up): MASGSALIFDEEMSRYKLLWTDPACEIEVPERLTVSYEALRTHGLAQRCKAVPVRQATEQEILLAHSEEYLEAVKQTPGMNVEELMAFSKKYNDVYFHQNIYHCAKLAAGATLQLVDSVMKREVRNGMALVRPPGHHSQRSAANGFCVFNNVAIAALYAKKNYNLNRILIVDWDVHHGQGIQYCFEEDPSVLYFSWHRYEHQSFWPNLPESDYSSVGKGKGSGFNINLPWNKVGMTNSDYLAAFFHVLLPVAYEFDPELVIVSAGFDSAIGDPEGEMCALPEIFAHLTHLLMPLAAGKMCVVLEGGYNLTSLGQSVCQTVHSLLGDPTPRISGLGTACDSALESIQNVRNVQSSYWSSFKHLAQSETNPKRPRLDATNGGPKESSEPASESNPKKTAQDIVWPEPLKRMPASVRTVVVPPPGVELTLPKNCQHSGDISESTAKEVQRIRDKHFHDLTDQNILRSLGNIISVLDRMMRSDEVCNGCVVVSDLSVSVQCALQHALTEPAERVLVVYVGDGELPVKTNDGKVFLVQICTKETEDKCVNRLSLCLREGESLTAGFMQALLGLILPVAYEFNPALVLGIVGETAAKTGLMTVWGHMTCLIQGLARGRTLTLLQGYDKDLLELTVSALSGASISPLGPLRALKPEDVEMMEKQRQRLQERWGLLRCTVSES
PDK1: [Pyruvate dehydrogenase (acetyl-transferring)] kinase isozyme 1, mitochondrial (PDK1, Homo sapiens, UniProt Q15118)
Sequence of UniProt Q15118 (whole entry, looked up): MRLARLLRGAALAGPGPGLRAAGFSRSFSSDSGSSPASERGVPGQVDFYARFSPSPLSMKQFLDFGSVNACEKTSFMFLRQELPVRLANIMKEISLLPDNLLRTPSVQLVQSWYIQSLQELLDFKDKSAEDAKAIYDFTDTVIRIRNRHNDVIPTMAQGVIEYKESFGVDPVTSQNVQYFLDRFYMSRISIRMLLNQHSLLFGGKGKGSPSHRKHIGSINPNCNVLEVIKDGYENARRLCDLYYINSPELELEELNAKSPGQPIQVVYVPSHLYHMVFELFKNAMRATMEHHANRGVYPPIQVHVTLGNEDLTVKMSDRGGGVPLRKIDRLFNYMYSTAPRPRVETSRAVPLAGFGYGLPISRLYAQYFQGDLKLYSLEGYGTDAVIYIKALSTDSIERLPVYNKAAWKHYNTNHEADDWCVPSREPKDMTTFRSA
AMY2: Pancreatic alpha-amylase (AMY2, Sus scrofa, UniProt P00690)
Sequence of UniProt P00690 (whole entry, looked up): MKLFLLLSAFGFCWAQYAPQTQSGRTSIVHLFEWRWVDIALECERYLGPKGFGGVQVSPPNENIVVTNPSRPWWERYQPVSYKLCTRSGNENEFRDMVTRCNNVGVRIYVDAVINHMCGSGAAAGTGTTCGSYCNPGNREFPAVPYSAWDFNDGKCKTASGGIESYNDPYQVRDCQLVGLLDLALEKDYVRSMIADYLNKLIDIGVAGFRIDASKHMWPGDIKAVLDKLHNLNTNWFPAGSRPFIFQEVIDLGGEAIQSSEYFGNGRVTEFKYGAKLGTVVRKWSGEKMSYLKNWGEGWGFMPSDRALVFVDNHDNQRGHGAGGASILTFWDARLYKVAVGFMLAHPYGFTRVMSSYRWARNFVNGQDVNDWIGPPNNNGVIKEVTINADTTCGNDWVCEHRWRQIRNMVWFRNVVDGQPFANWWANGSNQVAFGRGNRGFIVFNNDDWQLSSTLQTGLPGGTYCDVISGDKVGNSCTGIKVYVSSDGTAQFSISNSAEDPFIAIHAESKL
AKR1C2: Aldo-keto reductase family 1 member C2 (AKR1C2, Homo sapiens, UniProt P52895)
Sequence of UniProt P52895 (whole entry, looked up): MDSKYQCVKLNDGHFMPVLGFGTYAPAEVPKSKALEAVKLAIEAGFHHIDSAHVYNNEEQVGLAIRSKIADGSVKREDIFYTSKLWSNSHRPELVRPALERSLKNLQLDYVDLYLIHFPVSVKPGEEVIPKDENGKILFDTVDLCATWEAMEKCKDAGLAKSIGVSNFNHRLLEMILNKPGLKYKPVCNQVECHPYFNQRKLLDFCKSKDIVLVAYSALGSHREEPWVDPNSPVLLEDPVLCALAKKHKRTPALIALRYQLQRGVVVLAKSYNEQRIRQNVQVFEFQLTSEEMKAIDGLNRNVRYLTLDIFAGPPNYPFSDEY
CDK4 with cyclin D3: Cyclin-dependent kinase 4, with cyclin D3 (CDK4, Homo sapiens, UniProt P11802)
Sequence of UniProt P11802 (whole entry, looked up): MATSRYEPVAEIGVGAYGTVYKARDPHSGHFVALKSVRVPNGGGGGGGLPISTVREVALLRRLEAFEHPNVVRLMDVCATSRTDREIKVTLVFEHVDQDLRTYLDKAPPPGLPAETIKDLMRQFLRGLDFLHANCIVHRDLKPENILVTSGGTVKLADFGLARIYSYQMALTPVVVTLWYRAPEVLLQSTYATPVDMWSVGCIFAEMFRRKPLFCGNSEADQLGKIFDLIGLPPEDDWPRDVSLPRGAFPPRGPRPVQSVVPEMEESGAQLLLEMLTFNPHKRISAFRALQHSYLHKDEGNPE
Sigmar1: Sigma non-opioid intracellular receptor 1 (Sigmar1, Rattus norvegicus, UniProt Q9R0C9)
Sequence of UniProt Q9R0C9 (whole entry, looked up): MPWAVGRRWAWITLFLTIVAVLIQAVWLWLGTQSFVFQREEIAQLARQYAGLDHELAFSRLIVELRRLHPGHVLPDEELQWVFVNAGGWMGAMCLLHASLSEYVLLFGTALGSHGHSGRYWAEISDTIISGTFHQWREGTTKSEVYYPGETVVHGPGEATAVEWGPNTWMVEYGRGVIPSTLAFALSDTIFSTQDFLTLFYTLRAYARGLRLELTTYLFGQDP
Ectonucleoside triphosphate diphosphohydrolase 8: Ectonucleoside triphosphate diphosphohydrolase 8 (Homo sapiens, UniProt Q5MY95)
Sequence of UniProt Q5MY95 (whole entry, looked up): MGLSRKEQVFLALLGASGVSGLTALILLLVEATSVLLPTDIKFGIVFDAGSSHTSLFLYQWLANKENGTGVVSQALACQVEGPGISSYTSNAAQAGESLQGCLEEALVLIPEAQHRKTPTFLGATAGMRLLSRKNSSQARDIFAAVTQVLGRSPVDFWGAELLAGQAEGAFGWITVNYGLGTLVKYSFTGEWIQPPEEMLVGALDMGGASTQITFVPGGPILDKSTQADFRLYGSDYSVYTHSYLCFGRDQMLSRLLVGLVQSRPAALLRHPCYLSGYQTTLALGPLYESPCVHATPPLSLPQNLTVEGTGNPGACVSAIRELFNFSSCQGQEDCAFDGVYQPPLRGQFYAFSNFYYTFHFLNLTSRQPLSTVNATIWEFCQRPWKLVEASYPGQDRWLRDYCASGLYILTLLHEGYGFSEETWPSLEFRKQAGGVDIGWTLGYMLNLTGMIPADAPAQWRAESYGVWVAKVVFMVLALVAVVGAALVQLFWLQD
ELANE: Neutrophil elastase (ELANE, Homo sapiens, UniProt P08246)
Sequence of UniProt P08246 (whole entry, looked up): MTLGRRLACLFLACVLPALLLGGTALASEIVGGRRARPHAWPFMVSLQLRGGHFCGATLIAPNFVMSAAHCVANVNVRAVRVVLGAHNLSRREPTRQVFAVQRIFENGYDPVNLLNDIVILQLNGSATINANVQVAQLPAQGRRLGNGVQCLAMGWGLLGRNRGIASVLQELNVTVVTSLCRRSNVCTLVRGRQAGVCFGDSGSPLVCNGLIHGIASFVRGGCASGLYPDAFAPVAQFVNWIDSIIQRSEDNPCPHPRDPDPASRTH
CA2: Carbonic anhydrase 2 (CA2, Bos taurus, UniProt P00921)
Sequence of UniProt P00921 (whole entry, looked up): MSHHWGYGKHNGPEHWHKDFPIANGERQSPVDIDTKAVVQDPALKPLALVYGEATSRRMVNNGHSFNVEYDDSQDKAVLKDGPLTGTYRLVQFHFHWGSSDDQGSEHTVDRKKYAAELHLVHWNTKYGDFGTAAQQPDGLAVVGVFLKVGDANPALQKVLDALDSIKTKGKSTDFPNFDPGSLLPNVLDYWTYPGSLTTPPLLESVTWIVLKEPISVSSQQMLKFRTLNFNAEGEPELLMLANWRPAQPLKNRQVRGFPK
Sequence of UniProt P09769 (whole entry, looked up): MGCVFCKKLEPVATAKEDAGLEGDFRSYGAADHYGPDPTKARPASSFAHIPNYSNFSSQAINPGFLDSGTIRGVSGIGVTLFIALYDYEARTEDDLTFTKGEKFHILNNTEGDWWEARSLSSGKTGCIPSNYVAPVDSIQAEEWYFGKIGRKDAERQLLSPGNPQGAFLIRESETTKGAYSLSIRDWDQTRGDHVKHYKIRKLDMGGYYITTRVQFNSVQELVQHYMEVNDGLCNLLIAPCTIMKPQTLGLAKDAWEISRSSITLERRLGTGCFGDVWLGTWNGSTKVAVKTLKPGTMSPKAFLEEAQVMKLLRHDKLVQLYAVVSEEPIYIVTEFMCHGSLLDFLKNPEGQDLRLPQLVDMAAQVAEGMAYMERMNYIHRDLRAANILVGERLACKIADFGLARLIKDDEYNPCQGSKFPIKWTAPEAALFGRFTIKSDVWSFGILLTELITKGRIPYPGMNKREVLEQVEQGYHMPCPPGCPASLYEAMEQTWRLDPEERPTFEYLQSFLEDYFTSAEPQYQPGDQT
Sequence of UniProt P16732 (whole entry, looked up): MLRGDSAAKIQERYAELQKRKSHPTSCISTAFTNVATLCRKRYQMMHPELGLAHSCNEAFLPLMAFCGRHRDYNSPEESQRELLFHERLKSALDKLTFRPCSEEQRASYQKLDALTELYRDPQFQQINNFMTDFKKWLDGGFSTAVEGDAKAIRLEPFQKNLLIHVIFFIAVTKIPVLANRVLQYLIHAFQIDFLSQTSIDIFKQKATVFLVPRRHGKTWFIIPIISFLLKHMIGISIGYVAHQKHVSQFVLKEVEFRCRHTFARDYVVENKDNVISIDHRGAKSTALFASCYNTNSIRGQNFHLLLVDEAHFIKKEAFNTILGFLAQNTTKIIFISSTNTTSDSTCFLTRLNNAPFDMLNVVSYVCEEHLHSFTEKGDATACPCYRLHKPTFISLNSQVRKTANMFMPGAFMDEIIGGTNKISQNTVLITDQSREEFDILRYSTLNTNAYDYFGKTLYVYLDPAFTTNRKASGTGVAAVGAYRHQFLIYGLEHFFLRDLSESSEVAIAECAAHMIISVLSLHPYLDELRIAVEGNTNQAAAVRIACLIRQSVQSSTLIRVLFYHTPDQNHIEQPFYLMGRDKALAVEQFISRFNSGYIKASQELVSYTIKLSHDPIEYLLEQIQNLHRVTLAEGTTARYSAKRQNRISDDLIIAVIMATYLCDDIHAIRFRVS

Structure (SMILES)	target	test	system	conditions	inhibition
Cc1ccc(C(=O)N2CCN(Cc3noc(-c4ccccc4)n3)CC2)c(C)c1	Sodium channel protein type 9 subunit alpha (SCN9A, Homo sapiens, UniProt Q15858)	sodium current, whole-cell patch clamp	HEK293, stable	20 µM	4 ± 2%
COc1cc(/C=C/C(=O)NO)ccc1OCc1ccccc1	hdac10	–	–	1 µM	30%
O=C(c1ccc(Oc2ccc(Cl)cc2)c([N+](=O)[O-])c1)C(Cl)Cl	PDK1	kinase activity, inhibitor, Kinase-Glo	–	10 µM, with: E2 subunit	51.3%
Cc1cccc(/C=C/C(=O)c2cnn(-c3ccccc3)c2C)c1	AMY2	enzyme activity, inhibitor, absorbance	–	10 µM	12.9%
C[C@]12CC[C@@H]3c4cc(Br)c(O)c(Br)c4CC[C@H]3[C@@H]1CCC2=O	AKR1C2	enzyme activity, inhibitor, absorbance	–	10 µM, pH 9	83%
Nc1ccccc1NC(=O)c1ccc(Nc2nccc(-c3cn(C4CCCC4)nn3)n2)cc1	CDK4 with cyclin D3	enzyme activity, inhibitor, TR-FRET	–	5 µM	6.94%
COC(=O)c1[nH]c(=O)c2cccnc2c1O	Tripartite terminase subunit 3, C-terminal nuclease domain (Human betaherpesvirus 5, UniProt P16732)	endonuclease activity, ELISA	–	10 µM	14 ± 0.5%
C[C@]12CC[C@@H]3c4cc(Br)c(O)cc4CC[C@H]3[C@@H]1CCC2=O	AKR1C2	enzyme activity, inhibitor, absorbance	–	100 µM, pH 9	25%
C/C(=N\OCCCN1CCCC1)c1ccc(C(F)(F)F)cc1	Sigmar1	radioligand binding	–	1 µM	54.7%
O=C(NCc1ccccc1)c1cc(S(=O)(=O)NCc2ccccc2)ccc1Cl	Ectonucleoside triphosphate diphosphohydrolase 8	enzyme activity, inhibitor, absorbance	–	100 µM	3%
C/C(=N\OCCCN1CCCCC1)c1ccc(S(C)(=O)=O)cc1	Sigmar1	radioligand binding	–	10 µM	91.3%
C#Cc1cccc(Nc2ncnc3[nH]c4cc(Br)ccc4c23)c1	Protein-tyrosine kinase 6 (PTK6, Homo sapiens, UniProt Q13882)	enzyme activity, inhibitor, ADP detection	–	2 µM	19.3%
O=C(CCCCCCNc1ccc(C(=O)Nc2ccc(Cl)c(NC(=O)c3cccc(Cl)c3)c2)cn1)NO	Protein smoothened (SMO, Homo sapiens, UniProt Q99835, D473H)	BODIPY-cyclopamine binding, competition binding	HEK293T expressing SMO	concentration not given, with: BODIPY-cyclopamine	inhibited
Cn1c(-c2ccccc2)ccc1-c1nc(-c2ncc(Br)cn2)no1	Programmed cell death 1 ligand 1, with PD-1 (CD274, Homo sapiens, UniProt Q9NZQ7)	PD-1/PD-L1 binding, inhibitor, TR-FRET	–	25 µM	≥ 20%
C[C@@H](N)C1CCN(S(=O)(=O)c2cccc3c(=O)[nH]ccc23)CC1	Myotonin-protein kinase (DMPK, Homo sapiens, UniProt Q09013)	cell-free assay, competition with immobilised ligand	–	10 µM	> 95%
Cc1nc2ccccc2n1S(=O)(=O)c1ccc2c(c1)C(=O)CC2=O	ELANE	enzyme activity, inhibitor, fluorescence	–	100 µM	35.2%
C[C@]12CC[C@@H]3c4ccc(O)c(Br)c4CC[C@H]3[C@@H]1CCC2=O	AKR1C2	enzyme activity, inhibitor, absorbance	–	10 µM, pH 9	73%
COc1ccc(-n2c(-c3ccccc3)cs/c2=N/N=C/c2ccc(N3CCOCC3)cc2)cc1	CA2	enzyme activity, inhibitor, absorbance	–	500 µM	80.7%
CC(C)(O)CC(=O)CC(C(=O)O)C1CC[C@]2(C)C1CCC1[C@@]3(C)CC[C@H](O)C(C)(C)C3CC[C@]12C (stereo partly drawn)	AMY2	enzyme activity, inhibitor, absorbance	–	250 µM	26.8%
COC(=O)C(Cc1ccccn1)NC(=O)CCCCCCC(=O)NO (stereo not drawn)	hdac10	–	–	1 µM	64%
COc1cc2c(cc1Cl)[C@H]1CC[C@@]3(C)C(=O)CC[C@H]3[C@@H]1CC2	AKR1C2	enzyme activity, inhibitor, absorbance	–	10 µM, pH 9	60%
CC(C)Cn1cc(-c2ccnc(Nc3ccc(OCCCCCCC(=O)NO)cc3)n2)nn1	CDK4 with cyclin D3	enzyme activity, inhibitor, TR-FRET	–	5 µM	48.9%
O=C(Nc1ccccc1)c1ccccc1O	1-deoxy-D-xylulose 5-phosphate reductoisomerase (Escherichia coli K-12, UniProt P45568)	enzyme activity, inhibitor, absorbance	–	100 µM	100%
Clc1ccc(NN=C(c2ccccc2)c2ccccn2)nc1	Lysine-specific demethylase 4A (KDM4A, Homo sapiens, UniProt O75164)	demethylase activity, inhibitor, 1H NMR	–	160 µM, with: H3K9me3 peptide	inhibited
CC(C)C[C@H]1CNC(=O)N2C[C@H](C[C@H]2C(N)=O)SCC(=O)NCCNC(=O)CSC[C@H](NC(=O)[C@H](Cc2ccccc2)NC(=O)[C@H](CO)NC(=O)[C@@H](N)[C@@H](C)O)C(=O)N[C@@H](CCC(=O)O)C(=O)N[C@@H](Cc2ccc(O)cc2)C(=O)N[C@@H](Cc2c[nH]c3ccccc23)C(=O)N[C@@H](C)C(=O)N[C@@H](CC(C)C)CNC(=O)N1	E3 ubiquitin-protein ligase Mdm2, with p53 (MDM2, Homo sapiens, UniProt Q00987)	–	–	0.1 µM	99%
S=C(Nc1ccc(Cl)cc1)Nc1ccc2[nH]cnc2c1	Beta-glucuronidase (uidA, Escherichia coli, UniProt P05804)	enzyme activity, inhibitor, absorbance	–	100 µM	57.8%
O=C(O[C@@H]1Cc2c(O)cc(O)cc2O[C@@H]1c1ccc(O)cc1)c1cc(O)c(O)c(O)c1	Pancreatic triacylglycerol lipase (PNLIP, Sus scrofa, UniProt P00591)	enzyme activity, inhibitor	–	10 µM	97%

Structure (SMILES)	target	test	system	conditions	inhibition
O=C1CSC(c2cccc(Br)c2)N1c1cc(Cl)ccc1O (stereo not drawn)	ACTR3/Actin-related protein 2 (Homo sapiens, UniProt P61158+P61160)	actin polymerization, pyrenyl-actin	–	concentration not given	inhibited
O=C1C[C@@H](c2ccc(O)c(O)c2)c2c(cc(O)c3c2O[C@H](c2ccc(O)c(O)c2)[C@H](O)C3)O1	α-glucosidase (Saccharomyces cerevisiae)	inhibitor	–	10 µg/mL, with: pNPG	40.07 ± 0.27%
O=C(c1cccc(S(=O)(=O)NC2CC2)c1)N1CCOCC1	Ectonucleoside triphosphate diphosphohydrolase 3 (Homo sapiens, UniProt O75355)	enzyme activity, inhibitor, absorbance	–	100 µM	41%
Nc1ccccc1NC(=O)c1ccc(Nc2nccc(-c3cn(C4CCCCC4)nn3)n2)cc1	CDK4 with cyclin D3	enzyme activity, inhibitor, TR-FRET	–	50 nM	6.15%
C[C@@]12CC[C@@H]3c4cc(Cl)c(O)cc4CC[C@H]3[C@@H]1CCC2=O	AKR1C2	enzyme activity, inhibitor, absorbance	–	10 µM, pH 9	83%
CCOC(=O)C1=C(C)NC2=C(C(=O)CC(C)(C)C2)C1c1ccc(OCC(=O)NN=Cc2cccc([N+](=O)[O-])c2)cc1OCC(=O)NN=Cc1cccc([N+](=O)[O-])c1 (stereo not drawn)	Alpha-glucosidase MAL32 (MAL32, Saccharomyces cerevisiae, UniProt P38158)	inhibitor	–	0.5 mM, pH 6.8, 37 °C	90.6%
COc1cc(C(=O)NC2CCC(N3CCN(CC4CCC5(CCCC5)C4)CC3)CC2)c(F)cc1Nc1ncc2c(n1)N(C1CCCC1(F)F)CC(F)(F)C(=O)N2C (stereo not drawn)	Tyrosine-protein kinase Fgr (FGR, Homo sapiens, UniProt P09769)	cell-free assay, TR-FRET	–	10 µM	0.45%
C/C(=N\OCCCCN1CCCCC1)c1ccc(C(F)(F)F)cc1	Sigmar1	radioligand binding	–	10 µM	91.6%
C[C@@]12CC[C@@H]3c4cc(I)c(O)cc4CC[C@H]3[C@@H]1CCC2=O	AKR1C2	enzyme activity, inhibitor, absorbance	–	100 µM, pH 9	50%
COc1ccc(C(=O)NO)cc1NC(=O)c1ccc(Cl)cc1	hdac10	–	–	0.1 µM	14%
FC(F)(F)c1ccc(C(=NOCCCN2CCCCC2)c2ccccc2)cc1 (mixture of isomers)	Sigmar1	radioligand binding	–	10 µM	99.9%
COc1cccc(COc2ccccc2/C=C/C(=O)NO)c1	hdac10	–	–	0.1 µM	18%
CN(Cc1ccccc1)C(=O)c1cccc(S(=O)(=O)N2CCOCC2)c1	Ectonucleoside triphosphate diphosphohydrolase 8	enzyme activity, inhibitor, absorbance	–	100 µM	38%
O=C1CC(=O)c2cc(S(=O)(=O)n3cnc4ccccc43)ccc21	ELANE	enzyme activity, inhibitor, fluorescence	–	0.1 µM	14.3%
CC[C@H](C)[C@H](NC(=O)[C@H](CCCNC(=N)N)NC(=O)[C@H](CCCCN)NC(=O)[C@@H]1CCCN1C(=O)[C@@H]1CCCN1CCCN(CC[C@H](N)C(=O)O)C[C@H]1O[C@@H](n2cnc3c(N)ncnc32)[C@H](O)[C@@H]1O)C(=O)N[C@@H](C)C(N)=O	Histone-lysine N-methyltransferase EHMT2 (EHMT2, Homo sapiens, UniProt Q96KQ7)	enzyme activity, inhibitor	–	100 µM	< 30%
O=[N+]([O-])c1ccc(-c2cs/c(=N/N=C/c3ccc(N4CCOCC4)cc3)n2C2CCCCC2)cc1	CA2	enzyme activity, inhibitor, absorbance	–	500 µM	89.6%
CCCCSc1nnc(-c2ccc(N)cc2)o1	Signal transducer and activator of transcription 3 (STAT3, Homo sapiens, UniProt P40763)	phosphopeptide binding, AlphaScreen	–	60 µg/mL	74.1%
COc1ccc(Br)c(/C=C/C(=O)NO)c1	hdac10	–	–	1 µM	39%
O=C(/C=C/c1ccc2c(c1)OCO2)c1ccc(Cl)s1	Amine oxidase [flavin-containing] B (MAOB, Homo sapiens, UniProt P27338)	enzyme activity, inhibitor, fluorescence	–	1 µM	73.5%
COc1ccc(C(=O)NO)cc1NC(=O)c1ccc(-c2ccccc2)cc1	hdac10	–	–	1 µM	< 10%
CCOC(=O)c1c(NC(=O)CN2CCN(c3ccccn3)CC2)sc2c1CCC(c1ccccc1)C2 (stereo not drawn)	PDK1	enzyme activity, inhibitor, ATP luminescence	–	100 µg/mL	16.8%
Nc1nc2cc(CC[C@H]3C[C@@H](n4ccc5c(N)ncnc54)[C@H](O)[C@@H]3O)ccc2cc1Br	Protein arginine N-methyltransferase 5, with WDR77 (PRMT5, Homo sapiens, UniProt O14744)	methyltransferase activity, inhibitor	–	10 µM	> 80%
CN(CCON=C(c1ccccc1)c1ccc(C(F)(F)F)cc1)Cc1ccccc1 (mixture of isomers)	Sigmar1	radioligand binding	–	10 µM	94.8%
O=C(NO)c1coc(-c2ccc3ccccc3c2)n1	hdac10	–	–	0.1 µM	< 10%
O=c1c(-c2nc3ccccc3s2)cc2c(n1NS(=O)(=O)c1ccc(Cl)cc1)CCCCCC2	Ubiquitin carboxyl-terminal hydrolase 7 (USP7, Homo sapiens, UniProt Q93009)	enzyme activity, inhibitor, fluorescence	–	1 µg/mL	20.3%
COC(=O)C(Cc1cccc(C)n1)NC(=O)CCCCCCC(=O)NO (stereo not drawn)	hdac10	–	–	1 µM	51%
CN(C)C(=O)c1ccc(S(=O)(=O)c2ccc(NC(=O)[C@@](C)(O)C(F)(F)F)c(Cl)c2)cc1	PDK1	kinase activity, inhibitor, Kinase-Glo	–	10 µM, with: E2 subunit	86.4%

Excerpt of the above:
Structure (SMILES)	target	test	system	conditions	inhibition
FC(F)(F)c1ccc(C(=NOCCCN2CCCCC2)c2ccccc2)cc1 (mixture of isomers)	Sigmar1	radioligand binding	–	10 µM	99.9%
C[C@]12CC[C@@H]3c4ccc(O)c(Br)c4CC[C@H]3[C@@H]1CCC2=O	AKR1C2	enzyme activity, inhibitor, absorbance	–	10 µM, pH 9	73%
COC(=O)c1[nH]c(=O)c2cccnc2c1O	Tripartite terminase subunit 3, C-terminal nuclease domain (Human betaherpesvirus 5, UniProt P16732)	endonuclease activity, ELISA	–	10 µM	14 ± 0.5%
CC(C)Cn1cc(-c2ccnc(Nc3ccc(OCCCCCCC(=O)NO)cc3)n2)nn1	CDK4 with cyclin D3	enzyme activity, inhibitor, TR-FRET	–	5 µM	48.9%
